Assay results gathered from unrelated publications.
“And” joins repeats or separate records; there may be more than shown. ± marks the error that the study gave.

Structure (SMILES) | target or system | assay | test system | setting | how to read | measurement | result
CC(C)(C)NCC(SS(=O)(=O)O)c1ccccc1 (centres unmarked) | – | – | Schistosoma mansoni-infected mice | 600 mg/kg single, day 1, perfusion day 44 | – | liver weight | 2.44 g
CC(=O)[O-].O.O.O.O.[Co+2].[O-]c1ccc(Br)cc1C=NCCN1CCOCC1 | – | nitric oxide scavenging | – | 40 µM | – | inhibition | 12.8%
COC1OC(C)C(OS(=O)(=O)O)C(OC2OC(C)C(OS(=O)(=O)O)C(OC3OC(C)C(OS(=O)(=O)O)C(OS(=O)(=O)O)C3OS(=O)(=O)O)C2OS(=O)(=O)O)C1OS(=O)(=O)O (centres unmarked) | – | – | human plasma | 128 µg/mL | baseline: control | prothrombin time prolongation | 1.01 fold
NC[C@@H](C(=O)Nc1ccc(-c2cn[nH]c2)cc1)c1ccccc1 | – | tonometry | Macaca cyclopis, ocular normotensive | ocular, 0.1%, 4 h | – | IOP | 17.1 mmHg
CN1CCC[C@]1(C)/C=C/S(=O)(=O)NC(=O)Nc1c2c(cc3c1CCC3)CCC2 | – | – | human, whole blood ex vivo | 100 mg twice daily, day 1, 12 h, multiple ascending dose, with: LPS and ATP | – | IL-18 inhibition | 90.7%
Oc1cc2c(cc1O)C(c1ccco1)NCC2 (centres unmarked) | – | ABTS scavenging | – | 10 min, dark | – | IC50 | 8.4 µM
COC1OC(C)C(OS(=O)(=O)O)C(OC2OC(C)C(OS(=O)(=O)O)C(OC3OC(C)C(OS(=O)(=O)O)C(OC4OC(C)C(OS(=O)(=O)O)C(OC5OC(C)C(OS(=O)(=O)O)C(OC6OC(C)C(OS(=O)(=O)O)C(OS(=O)(=O)O)C6OS(=O)(=O)O)C5OS(=O)(=O)O)C4OS(=O)(=O)O)C3OS(=O)(=O)O)C2OS(=O)(=O)O)C1OS(=O)(=O)O (centres unmarked) | – | – | human plasma | 128 µg/mL | – | prothrombin time | 15.4 ± 0.5 s
CN1CCCNC(=O)c2cccc(c2)C(=O)NCCCN(C)CCCNc2cccc3c2C(=O)c2cccc(c2C3=O)NCCC1 | – | – | KSN/Slc nude mice, SAS xenograft | dose not given, day 0, group mean | – | tumour volume | 71.7 mm3
C[n+]1ccc(/C=N/NC(=O)c2ccc3ccc4ccc(C(=O)N/N=C/c5cc[n+](C)c6ccccc56)nc4c3n2)c2ccccc21 | hp2 hairpin duplex DNA | FRET melting | – | 1 µM, with: ds26 10 µM | – | ΔTm | 0.3 ± 0.2 °C
CCCCCc1ccc(S(=O)(=O)N2CC2C(=O)OC)cc1 (centres unmarked) | – | – | mouse, Lewis lung carcinoma | intraperitoneal, 15 mg/kg, 16 doses, day 12 | – | tumour growth inhibition | 62%
COC1OC(C)C(OC2OC(C)C(OS(=O)(=O)O)C(OC3OC(C)C(OC4OC(C)C(OS(=O)(=O)O)C(OC5OC(C)C(OC6OC(C)C(OS(=O)(=O)O)C(OC7OC(C)C(OC8OC(C)C(OS(=O)(=O)O)C(OS(=O)(=O)O)C8O)C(OS(=O)(=O)O)C7O)C6O)C(OS(=O)(=O)O)C5O)C4O)C(OS(=O)(=O)O)C3O)C2O)C(OS(=O)(=O)O)C1O (centres unmarked) | – | – | human plasma | 128 µg/mL | baseline: control | prothrombin time prolongation | 0.94 fold
CCCCNC(CCCC)CSS(=O)(=O)O (centres unmarked) | – | – | Swiss Webster mice, Schistosoma mansoni infected | 100 mg/kg | baseline: vehicle control | liver weight decrease | 17%
C[C@@H](Nc1c(-c2c(F)cc(C#N)cc2F)c(Cl)nc2ncnn12)C(C)(C)C | – | immunoblot, refers to: insoluble total tau | male PS19 tau transgenic mice, brain | intraperitoneal, 3 mg/kg twice weekly, 3 months | baseline: vehicle | reduction | ~50%
COC1OC(C)C(OC2OC(C)C(OS(=O)(=O)O)C(OS(=O)(=O)O)C2O)C(OS(=O)(=O)O)C1O (centres unmarked) | – | – | human plasma | 128 µg/mL | baseline: control | prothrombin time prolongation | 1 fold
COc1ccccc1-c1ccncc1C(=O)Nc1nnc(OCc2ccc(Cl)cc2)s1 | – | – | Brca1 Δ11/Δ11 MEF sgGFP, Mus musculus | 5 µM, mean of all runs | baseline: 0 µM | colony survival | 72.2%
OCC1OC(n2cnc3c(NCc4ccc(Br)s4)ncnc32)C(O)C1O (centres unmarked) | – | FDG-PET | wild-type mouse | oral, 3 mg/kg, 2 h | – | cortex and hippocampus glucose metabolism | increased
COC1OC(C)C(OC2OC(C)C(O)C(OC3OC(C)C(OC4OC(C)C(O)C(OC5OC(C)C(OC6OC(C)C(O)C(OC7OC(C)C(OC8OC(C)C(O)C(OC9OC(C)C(OC%10OC(C)C(O)C(OS(=O)(=O)O)C%10OS(=O)(=O)O)C(OS(=O)(=O)O)C9OS(=O)(=O)O)C8OS(=O)(=O)O)C(OS(=O)(=O)O)C7OS(=O)(=O)O)C6OS(=O)(=O)O)C(OS(=O)(=O)O)C5OS(=O)(=O)O)C4OS(=O)(=O)O)C(OS(=O)(=O)O)C3OS(=O)(=O)O)C2OS(=O)(=O)O)C(OS(=O)(=O)O)C1OS(=O)(=O)O (centres unmarked) | – | – | human plasma | 128 µg/mL | baseline: control | prothrombin time prolongation | 0.98 fold
CCC(=O)N[C@@H](C)C(=O)OCC(=O)N[C@@H](C)C(=O)O | – | – | water | pH 3, 65 °C | – | chain scission rate constant | 0.0076 h⁻¹
COC1OC(C)C(OS(=O)(=O)O)C(OC2OC(C)C(OS(=O)(=O)O)C(OC3OC(C)C(OS(=O)(=O)O)C(OC4OC(C)C(OS(=O)(=O)O)C(OC5OC(C)C(OS(=O)(=O)O)C(OC6OC(C)C(OS(=O)(=O)O)C(OC7OC(C)C(OS(=O)(=O)O)C(OC8OC(C)C(OS(=O)(=O)O)C(OC9OC(C)C(OS(=O)(=O)O)C(OS(=O)(=O)O)C9O)C8O)C7O)C6O)C5O)C4O)C3O)C2O)C1O (centres unmarked) | – | – | human plasma | 128 µg/mL | – | prothrombin time | 15.3 ± 0.7 s
CCN1C/C(=C\c2cc(Cl)c(O)c(Cl)c2)C(=O)/C(=C/c2cc(Cl)c(O)c(Cl)c2)C1 | – | ABTS scavenging | – | 20 min | – | IC50 | 46.6 µg/mL
COC1CN([C@H]2CC[C@H]([C@@]3(C)Oc4c(Cl)cc(C(=O)NCc5c(SC)cc(C)[nH]c5=O)c(C)c4O3)CC2)C1 | – | RNA-seq, refers to: DTNA | human, whole blood | dose not given, 24 h | baseline: pretreatment baseline | log2 fold change | 3.4
COc1cc(C2NCCc3cc(O)c(O)cc32)cc(OC)c1OC (centres unmarked) | – | ABTS scavenging | – | 10 min, dark | – | IC50 | 13.6 µM
CC(C)C[C@H](NC(=O)[C@H](CC(=O)O)NC(=O)CNC(=O)[C@@H](N)CCCNC(=N)N)C(=O)N[C@@H](C)C(=O)N[C@H](C(=O)N[C@@H](CC(C)C)C(=O)N[C@@H](CCCNC(=N)N)C(=O)N[C@@H](CCC(N)=O)C(=O)N[C@@H](CC(C)C)C(=O)N[C@@H](C)C(=O)N[C@@H](CCC(N)=O)C(=O)N[C@@H](CCC(=O)O)C(=O)N[C@@H](CC(=O)O)C(=O)NCC(=O)N[C@H](C(=O)N[C@H](C(=O)NCC(=O)N[C@H](C(=O)N[C@@H](CCCNC(=N)N)C(=O)NCCOCCOCCOCCOCCOCCOCCOCCOCCOCCOCCOCCOCCC(=O)N[C@@H](CS)C(N)=O)C(C)C)C(C)C)C(C)C)[C@@H](C)O | – | ex vivo NIR imaging | NOD/SCID mice, xenograft, H460 xenograft | intravenous, 30 µg, 24 h | baseline: lung | fluorescence signal ratio | 0.19 and 0.49
COC1OC(C)C(OC2OC(C)C(OS(=O)(=O)O)C(OC3OC(C)C(OC4OC(C)C(OS(=O)(=O)O)C(OC5OC(C)C(OC6OC(C)C(OS(=O)(=O)O)C(OC7OC(C)C(OS(=O)(=O)O)C(OS(=O)(=O)O)C7O)C6O)C(OS(=O)(=O)O)C5O)C4O)C(OS(=O)(=O)O)C3O)C2O)C(OS(=O)(=O)O)C1O (centres unmarked) | – | – | human plasma | 128 µg/mL | baseline: control | prothrombin time prolongation | 1 fold
Cc1cnc2nc1Nc1cccc(c1)COC/C=C/COCc1cc(ccc1OCCN1CCOCC1)N2 | – | – | BALB/c mice rhEPO-induced polycythemia | 100 mg/kg | – | hematocrit | 51.9% and 44.3% and 48.1% and 46.4% and 45.5% and 44.4%
COC1OC(C)C(OS(=O)(=O)O)C(OC2OC(C)C(OS(=O)(=O)O)C(OC3OC(C)C(OS(=O)(=O)O)C(OC4OC(C)C(OS(=O)(=O)O)C(OC5OC(C)C(OS(=O)(=O)O)C(OC6OC(C)C(OS(=O)(=O)O)C(OC7OC(C)C(OS(=O)(=O)O)C(OS(=O)(=O)O)C7O)C6O)C5O)C4O)C3O)C2O)C1O (centres unmarked) | – | – | human plasma | 128 µg/mL | baseline: control | prothrombin time prolongation | 1 fold
CNCc1ccc(-c2cc(=O)c3ccc4[nH]c(C(F)(F)F)nc4c3o2)cc1 | – | ELISA | 3xTg mice, brain lysate | dose not given, 3 months | – | Aβ42 level | decreased
COc1cc(O)ccc1CCC(c1ccc(O)cc1)c1cc2c(c(C)c1O)OC(c1ccc(O)cc1)CC2 (mixture of isomers) | – | refers to: 12-HEPE | human whole blood | 1 µM, with: A23187 | – | amount | 152 ± 18 pg/mL blood
Cc1cn(-c2cc(NC(=O)c3cc(C#Cc4cnc5c(Nc6cnn(C)c6)cccn45)c(C)cc3F)cc(C(C)(C)C#N)c2)cn1 | – | platelet aggregation | platelet-rich plasma | 0.1 µM, DMSO 130.6, with: collagen 2 mg/mL | – | lag time | 156 s

For quick reference, copied from above:
Structure (SMILES) | target or system | assay | test system | setting | how to read | measurement | result
COC1OC(C)C(OC2OC(C)C(OS(=O)(=O)O)C(OC3OC(C)C(OC4OC(C)C(OS(=O)(=O)O)C(OC5OC(C)C(OC6OC(C)C(OS(=O)(=O)O)C(OC7OC(C)C(OC8OC(C)C(OS(=O)(=O)O)C(OS(=O)(=O)O)C8O)C(OS(=O)(=O)O)C7O)C6O)C(OS(=O)(=O)O)C5O)C4O)C(OS(=O)(=O)O)C3O)C2O)C(OS(=O)(=O)O)C1O (centres unmarked) | – | – | human plasma | 128 µg/mL | baseline: control | prothrombin time prolongation | 0.94 fold
COC1OC(C)C(OS(=O)(=O)O)C(OC2OC(C)C(OS(=O)(=O)O)C(OC3OC(C)C(OS(=O)(=O)O)C(OC4OC(C)C(OS(=O)(=O)O)C(OC5OC(C)C(OS(=O)(=O)O)C(OC6OC(C)C(OS(=O)(=O)O)C(OC7OC(C)C(OS(=O)(=O)O)C(OC8OC(C)C(OS(=O)(=O)O)C(OC9OC(C)C(OS(=O)(=O)O)C(OS(=O)(=O)O)C9O)C8O)C7O)C6O)C5O)C4O)C3O)C2O)C1O (centres unmarked) | – | – | human plasma | 128 µg/mL | – | prothrombin time | 15.3 ± 0.7 s
COc1ccccc1-c1ccncc1C(=O)Nc1nnc(OCc2ccc(Cl)cc2)s1 | – | – | Brca1 Δ11/Δ11 MEF sgGFP, Mus musculus | 5 µM, mean of all runs | baseline: 0 µM | colony survival | 72.2%
COc1cc(O)ccc1CCC(c1ccc(O)cc1)c1cc2c(c(C)c1O)OC(c1ccc(O)cc1)CC2 (mixture of isomers) | – | refers to: 12-HEPE | human whole blood | 1 µM, with: A23187 | – | amount | 152 ± 18 pg/mL blood
